Measured values collected from several papers.
Each line is one published result; not all experiments were run side by side. ± gives the spread as reported.
Melanocortin receptor 5: Melanocortin receptor 5 (Mus musculus, UniProt P41149)
GRM4: Metabotropic glutamate receptor 4 (GRM4, Homo sapiens, UniProt Q14833)
GLP1R: Glucagon-like peptide 1 receptor (GLP1R, Homo sapiens, UniProt P43220)

Protein sequences, listed by entry. Tags and fused reporters are not part of them. Residues count along the entry.
UniProt P41149, whole entry: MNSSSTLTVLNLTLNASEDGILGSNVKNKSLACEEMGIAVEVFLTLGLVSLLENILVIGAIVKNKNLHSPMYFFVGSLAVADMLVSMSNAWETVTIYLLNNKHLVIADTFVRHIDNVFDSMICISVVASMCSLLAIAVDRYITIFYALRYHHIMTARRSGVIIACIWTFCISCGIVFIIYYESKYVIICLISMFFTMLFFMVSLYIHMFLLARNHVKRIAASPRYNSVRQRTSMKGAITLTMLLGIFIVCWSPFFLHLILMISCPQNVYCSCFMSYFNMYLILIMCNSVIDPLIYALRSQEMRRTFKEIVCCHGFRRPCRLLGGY
UniProt Q14833, 33-912 limits assumed: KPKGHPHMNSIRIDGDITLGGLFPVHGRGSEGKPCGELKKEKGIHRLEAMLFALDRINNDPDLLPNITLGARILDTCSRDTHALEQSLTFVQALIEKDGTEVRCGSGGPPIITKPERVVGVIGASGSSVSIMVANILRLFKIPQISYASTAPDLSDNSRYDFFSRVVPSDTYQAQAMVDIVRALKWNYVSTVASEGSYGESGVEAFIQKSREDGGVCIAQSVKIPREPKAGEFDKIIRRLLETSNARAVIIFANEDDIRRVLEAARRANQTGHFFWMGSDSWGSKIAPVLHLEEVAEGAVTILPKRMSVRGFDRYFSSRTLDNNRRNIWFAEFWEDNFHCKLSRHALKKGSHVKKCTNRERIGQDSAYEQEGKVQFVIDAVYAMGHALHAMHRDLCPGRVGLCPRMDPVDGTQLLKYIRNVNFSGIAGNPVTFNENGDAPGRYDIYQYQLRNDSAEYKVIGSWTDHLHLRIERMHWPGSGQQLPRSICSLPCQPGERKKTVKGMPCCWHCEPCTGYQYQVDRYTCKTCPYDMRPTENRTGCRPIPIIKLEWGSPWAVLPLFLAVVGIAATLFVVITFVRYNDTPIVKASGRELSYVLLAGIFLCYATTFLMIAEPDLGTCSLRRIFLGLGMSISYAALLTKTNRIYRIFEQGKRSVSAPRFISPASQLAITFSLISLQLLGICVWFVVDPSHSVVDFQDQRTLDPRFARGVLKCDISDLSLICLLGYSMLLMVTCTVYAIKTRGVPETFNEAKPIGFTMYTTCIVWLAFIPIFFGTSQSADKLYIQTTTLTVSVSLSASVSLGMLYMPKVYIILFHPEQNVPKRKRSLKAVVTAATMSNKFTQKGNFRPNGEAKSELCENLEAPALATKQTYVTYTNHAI
UniProt P43220, whole entry, looked up: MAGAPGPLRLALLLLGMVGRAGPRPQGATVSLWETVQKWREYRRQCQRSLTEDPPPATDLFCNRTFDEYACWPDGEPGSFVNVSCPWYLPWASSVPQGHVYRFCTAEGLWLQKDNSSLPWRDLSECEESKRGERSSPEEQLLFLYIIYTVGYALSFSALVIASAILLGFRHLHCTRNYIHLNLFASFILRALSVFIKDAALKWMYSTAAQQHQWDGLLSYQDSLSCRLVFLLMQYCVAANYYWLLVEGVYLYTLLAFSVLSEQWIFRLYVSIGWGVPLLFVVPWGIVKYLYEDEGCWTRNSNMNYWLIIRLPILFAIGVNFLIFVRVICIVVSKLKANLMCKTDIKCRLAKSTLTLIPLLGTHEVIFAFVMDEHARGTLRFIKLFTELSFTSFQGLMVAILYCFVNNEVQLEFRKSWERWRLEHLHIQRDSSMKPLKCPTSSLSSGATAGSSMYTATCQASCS
UniProt P43220, 24-463 limits assumed: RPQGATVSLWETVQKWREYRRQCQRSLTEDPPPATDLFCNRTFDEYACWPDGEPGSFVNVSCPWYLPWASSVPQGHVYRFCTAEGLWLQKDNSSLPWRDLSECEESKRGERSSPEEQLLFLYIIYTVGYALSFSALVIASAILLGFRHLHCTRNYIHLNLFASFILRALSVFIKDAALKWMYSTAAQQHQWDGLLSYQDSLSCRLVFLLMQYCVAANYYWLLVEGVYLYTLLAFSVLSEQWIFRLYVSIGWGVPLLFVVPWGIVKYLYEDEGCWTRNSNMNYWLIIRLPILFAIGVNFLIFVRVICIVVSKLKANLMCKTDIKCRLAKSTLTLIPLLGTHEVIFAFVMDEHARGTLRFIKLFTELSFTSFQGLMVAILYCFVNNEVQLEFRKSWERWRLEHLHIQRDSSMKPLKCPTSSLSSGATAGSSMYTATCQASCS
UniProt Q3UFF7, whole entry: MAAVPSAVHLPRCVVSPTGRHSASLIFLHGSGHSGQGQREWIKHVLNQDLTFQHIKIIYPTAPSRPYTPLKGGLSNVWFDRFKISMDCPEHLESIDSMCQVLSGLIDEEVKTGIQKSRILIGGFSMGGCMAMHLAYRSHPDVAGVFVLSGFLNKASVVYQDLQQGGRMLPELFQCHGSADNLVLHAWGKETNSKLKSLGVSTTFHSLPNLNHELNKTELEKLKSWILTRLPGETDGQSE
UniProt P45983, whole entry: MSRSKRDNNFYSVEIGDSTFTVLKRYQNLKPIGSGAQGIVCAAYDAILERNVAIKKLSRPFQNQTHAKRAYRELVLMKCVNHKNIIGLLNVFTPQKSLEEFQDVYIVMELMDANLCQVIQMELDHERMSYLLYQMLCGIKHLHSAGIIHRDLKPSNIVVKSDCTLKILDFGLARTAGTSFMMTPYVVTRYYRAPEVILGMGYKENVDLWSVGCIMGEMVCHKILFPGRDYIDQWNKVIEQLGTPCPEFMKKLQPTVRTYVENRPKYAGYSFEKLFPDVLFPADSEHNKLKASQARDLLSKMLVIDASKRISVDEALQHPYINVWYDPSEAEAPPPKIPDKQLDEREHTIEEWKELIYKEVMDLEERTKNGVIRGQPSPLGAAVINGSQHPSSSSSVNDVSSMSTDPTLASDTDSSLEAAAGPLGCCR
UniProt Q923Y9, whole entry: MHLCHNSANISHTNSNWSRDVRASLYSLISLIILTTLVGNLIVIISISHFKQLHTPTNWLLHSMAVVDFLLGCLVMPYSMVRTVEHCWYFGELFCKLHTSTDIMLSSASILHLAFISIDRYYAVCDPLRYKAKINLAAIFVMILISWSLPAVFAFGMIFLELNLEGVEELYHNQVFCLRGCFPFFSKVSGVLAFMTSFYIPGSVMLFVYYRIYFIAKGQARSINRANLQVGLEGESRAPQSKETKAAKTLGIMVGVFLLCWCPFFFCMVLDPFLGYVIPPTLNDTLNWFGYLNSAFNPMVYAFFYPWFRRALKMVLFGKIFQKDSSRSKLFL
UniProt Q923Y9, whole entry M268T: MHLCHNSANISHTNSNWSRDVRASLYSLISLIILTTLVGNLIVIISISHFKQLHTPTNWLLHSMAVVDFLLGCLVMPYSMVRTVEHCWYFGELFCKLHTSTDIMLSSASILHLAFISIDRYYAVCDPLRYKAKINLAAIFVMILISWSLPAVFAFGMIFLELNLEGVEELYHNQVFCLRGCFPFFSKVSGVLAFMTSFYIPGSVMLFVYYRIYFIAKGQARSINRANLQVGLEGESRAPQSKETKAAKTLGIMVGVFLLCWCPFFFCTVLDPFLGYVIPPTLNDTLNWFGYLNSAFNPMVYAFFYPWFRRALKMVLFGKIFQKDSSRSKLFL
UniProt Q5JUK3, whole entry: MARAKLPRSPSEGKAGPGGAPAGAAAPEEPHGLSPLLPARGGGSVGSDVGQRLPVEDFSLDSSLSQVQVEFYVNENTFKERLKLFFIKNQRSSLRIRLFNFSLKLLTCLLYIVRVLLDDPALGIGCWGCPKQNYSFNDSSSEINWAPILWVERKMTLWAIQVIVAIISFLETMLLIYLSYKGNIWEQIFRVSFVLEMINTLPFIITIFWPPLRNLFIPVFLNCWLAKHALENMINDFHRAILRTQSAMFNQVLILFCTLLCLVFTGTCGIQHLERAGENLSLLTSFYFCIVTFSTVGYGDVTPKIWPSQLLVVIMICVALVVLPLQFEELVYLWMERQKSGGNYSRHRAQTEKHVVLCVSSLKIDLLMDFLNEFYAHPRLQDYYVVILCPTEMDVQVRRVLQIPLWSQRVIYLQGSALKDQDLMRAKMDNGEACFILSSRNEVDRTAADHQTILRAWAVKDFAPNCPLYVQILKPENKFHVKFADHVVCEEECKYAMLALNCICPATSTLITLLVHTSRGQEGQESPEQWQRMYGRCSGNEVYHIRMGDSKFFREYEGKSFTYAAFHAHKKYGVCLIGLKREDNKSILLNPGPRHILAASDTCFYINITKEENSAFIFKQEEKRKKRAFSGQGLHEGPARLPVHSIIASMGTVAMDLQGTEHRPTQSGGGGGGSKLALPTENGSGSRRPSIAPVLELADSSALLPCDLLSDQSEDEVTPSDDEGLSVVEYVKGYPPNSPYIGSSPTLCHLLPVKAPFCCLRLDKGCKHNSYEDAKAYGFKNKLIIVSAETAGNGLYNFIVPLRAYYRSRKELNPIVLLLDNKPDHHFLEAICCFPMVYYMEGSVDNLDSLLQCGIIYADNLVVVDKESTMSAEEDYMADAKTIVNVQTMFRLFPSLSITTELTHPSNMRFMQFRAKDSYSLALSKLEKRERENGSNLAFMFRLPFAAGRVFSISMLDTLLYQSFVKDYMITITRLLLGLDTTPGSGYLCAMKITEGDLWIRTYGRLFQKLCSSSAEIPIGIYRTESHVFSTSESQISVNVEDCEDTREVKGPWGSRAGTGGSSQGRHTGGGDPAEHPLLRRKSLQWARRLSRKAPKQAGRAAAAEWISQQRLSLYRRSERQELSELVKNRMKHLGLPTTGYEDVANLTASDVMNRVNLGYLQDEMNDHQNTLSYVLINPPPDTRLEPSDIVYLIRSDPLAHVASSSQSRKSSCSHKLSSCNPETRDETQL
UniProt P21462, whole entry: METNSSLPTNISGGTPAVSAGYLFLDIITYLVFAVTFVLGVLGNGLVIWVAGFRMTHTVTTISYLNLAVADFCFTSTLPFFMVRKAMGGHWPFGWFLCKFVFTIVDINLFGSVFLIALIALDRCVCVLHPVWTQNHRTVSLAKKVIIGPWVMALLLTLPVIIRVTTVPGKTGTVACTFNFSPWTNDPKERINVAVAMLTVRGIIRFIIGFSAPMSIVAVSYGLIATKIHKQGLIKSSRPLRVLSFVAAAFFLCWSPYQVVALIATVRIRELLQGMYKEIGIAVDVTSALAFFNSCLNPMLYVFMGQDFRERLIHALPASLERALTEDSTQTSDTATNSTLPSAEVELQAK
UniProt Q02750, whole entry: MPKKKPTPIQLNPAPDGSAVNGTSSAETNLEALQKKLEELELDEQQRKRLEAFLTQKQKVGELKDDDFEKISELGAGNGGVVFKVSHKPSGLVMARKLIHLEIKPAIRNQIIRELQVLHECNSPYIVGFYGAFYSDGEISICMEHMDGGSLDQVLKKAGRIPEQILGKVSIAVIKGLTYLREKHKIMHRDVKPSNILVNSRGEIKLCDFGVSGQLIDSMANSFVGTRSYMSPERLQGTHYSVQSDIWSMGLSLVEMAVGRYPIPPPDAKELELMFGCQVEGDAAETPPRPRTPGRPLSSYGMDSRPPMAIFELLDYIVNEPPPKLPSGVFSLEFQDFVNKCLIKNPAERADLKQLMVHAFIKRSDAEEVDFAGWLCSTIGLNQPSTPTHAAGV
UniProt Q923Y8, whole entry T268M/Y287N: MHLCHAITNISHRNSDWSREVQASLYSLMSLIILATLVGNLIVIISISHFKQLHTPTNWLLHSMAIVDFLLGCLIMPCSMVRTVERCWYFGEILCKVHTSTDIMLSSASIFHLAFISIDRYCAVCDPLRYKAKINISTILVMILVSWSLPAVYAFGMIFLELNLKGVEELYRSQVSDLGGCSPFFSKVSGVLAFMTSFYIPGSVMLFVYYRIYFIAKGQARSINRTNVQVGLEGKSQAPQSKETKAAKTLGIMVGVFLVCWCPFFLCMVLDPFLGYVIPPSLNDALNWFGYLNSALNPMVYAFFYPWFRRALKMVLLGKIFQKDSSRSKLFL
UniProt P47895, whole entry: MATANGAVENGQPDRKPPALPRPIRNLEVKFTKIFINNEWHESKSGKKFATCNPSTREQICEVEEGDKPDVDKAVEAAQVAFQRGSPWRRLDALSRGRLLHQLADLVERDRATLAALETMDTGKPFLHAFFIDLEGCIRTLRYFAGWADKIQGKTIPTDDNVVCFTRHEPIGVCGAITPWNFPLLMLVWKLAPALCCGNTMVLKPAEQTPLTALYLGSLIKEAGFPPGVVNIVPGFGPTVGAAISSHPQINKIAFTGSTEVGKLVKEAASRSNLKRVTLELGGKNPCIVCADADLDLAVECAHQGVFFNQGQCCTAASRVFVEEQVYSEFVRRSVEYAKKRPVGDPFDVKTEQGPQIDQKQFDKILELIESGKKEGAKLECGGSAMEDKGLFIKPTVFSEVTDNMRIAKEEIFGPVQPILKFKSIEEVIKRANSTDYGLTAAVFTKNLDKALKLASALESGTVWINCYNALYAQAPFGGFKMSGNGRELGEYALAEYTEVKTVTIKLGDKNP

The EC50 of `NCCCCNC(=O)[C@H](Cc1ccc2ccccc2c1)NC(=O)N1CCc2ccccc2C1` is reported as over 100000 nM (Melanocortin receptor 5; reporter gene, agonist, β-galactosidase reporter; HEK293 stably expressing Melanocortin receptor 5).
For `O=C(Nc1nccs1)C12CC1/C(=N\O)c1ccccc1O2` (stereo not drawn), the EC50 was over 5000 nM (GRM4; calcium mobilization, positive allosteric modulator; CHO hmGluR4/Gqi5; added: glutamate EC20).
With `Nc1nc(SCc2ccc(Cl)cc2)nn1S(=O)(=O)c1ccc(C(F)(F)F)nc1` the EC50 was 2400 nM (Lysophospholipase-like protein 1 (Mus musculus, UniProt Q3UFF7); enzyme activity, activator, gel-based ABPP, FP-rhodamine; purified protein).
With `COC(=O)[C@@]1(C)C=C(C(=O)OCc2cccc(C(=O)Nc3ccc(Nc4nccc(-c5cccnc5)n4)c(C)c3)c2)C(=O)CC1` the EC50 was 650 ± 180 nM (MAPK8 (Homo sapiens, UniProt P45983); JNK1 binding, NanoBRET; HEK293 cells; 2 h, added: tracer K-5).
`COc1ccccc1-c1cc(C(F)(F)F)nc(S(=O)(=O)CCCC(=O)O)n1` gave an EC50 of 39000 ± 8300 nM (GLP1R; cAMP accumulation, agonist; HEK293T overexpressing target; no peptide ligand).
For `CCOC(=O)COC(=O)[C@@H]1C(C=O)=Cc2cc3c(cc2[C@H]1c1cc(OC)c(OC)c(OC)c1)OCO3`, the EC50 was 64800 ± 4900 nM (Leishmania infantum; promastigote, iRFP).
`COc1ccc(NC(=O)CN2CCCN(S(=O)(=O)c3ccsc3)CC2)c(OC)c1` gave an EC50 of over 10000 nM (GRM4; calcium mobilization, positive allosteric modulator; CHO cells with Gqi5; added: glutamate EC20).
For `NCC(c1ccccc1)c1ccc(O)cc1` (stereo not drawn), the EC50 was 78 ± 9 nM (Trace amine-associated receptor 1 (Rattus norvegicus, UniProt Q923Y9); cAMP production, agonist; HEK293).
`O=C(O)CCNC(=O)c1ccc(NCc2cn(CC3(c4ccc(Cl)cc4)CC3)nn2)cc1` gave an EC50 of 5780 nM (GLP1R; cAMP accumulation, positive allosteric modulator, HTRF; CHO-K1 expressing GLP1R; added: GLP-1 at EC20).
`O=S(=O)(c1cccc(C(F)(F)F)c1)N1CCC(Cn2cnc3cc(C(F)(F)F)ccc32)CC1` gave an EC50 of over 10000 nM (KCNT1 (Homo sapiens, UniProt Q5JUK3); thallium flux, activator; HEK293 expressing KCNT1).
For `CCc1ccc(NC(=O)CSc2nc3ccc(OC)cc3[nH]2)cc1`, the EC50 was 5500 nM (FPR1 (Homo sapiens, UniProt P21462); calcium mobilization, agonist; HL-60 transfected with FPR1).
With `COc1ccc(NC(=O)CN2CCCN(S(=O)(=O)c3ccc(C)cc3)CC2)c(OC)c1` the EC50 was 3300 ± 200 nM (GRM4; calcium mobilization, positive allosteric modulator; CHO cells with Gqi5; added: glutamate EC20).
With `Cc1c(=O)n(C)c(Nc2ccc(I)cc2F)c2c(=O)n(C3CC3)c(=O)n(-c3cccc(NC(=O)CCOCCOCCNC(=O)CCC4=[N+]5C(=Cc6ccc(-c7ccc[nH]7)n6[B-]5(F)F)C=C4)c3)c12` the EC50 was 112 ± 1 nM (Dual specificity mitogen-activated protein kinase kinase 1, with KSR1 (MAP2K1, Homo sapiens, UniProt Q02750); binding, NanoBRET; HEK-293T; MEK1-NanoLuc with KSR1).
`NCC(c1ccccc1)c1cccc(Oc2ccccc2)c1` (stereo not drawn) has an EC50 of 43 ± 5 nM (Taar1 (Mus musculus, UniProt Q923Y8, T268M/Y287N); cAMP production, agonist; double mutant).
`Cc1[nH]c2cc(Cl)cc(Cl)c2c1CCn1cc(CN2CCS(=O)(=O)CC2)nn1` has an EC50 of 663 ± 171 nM (GLP1R; cAMP accumulation, positive allosteric modulator, HTRF; CHO-K1 expressing GLP1R; purified compound, added: GLP-1(9-36) at EC20).
The EC50 of `O=C(CCCCCONC(=O)c1cc2ccccc2[nH]1)NO` is reported as 1 to 100 nM (HDAC6 (Homo sapiens, UniProt Q9UBN7); enzyme activity).
The EC50 of `NCC(c1ccc(O)cc1)c1ccc(Oc2ccccc2)cc1` (stereo not drawn) is reported as 11 ± 1 nM (Trace amine-associated receptor 1 (Rattus norvegicus, UniProt Q923Y9, M268T); cAMP, agonist; rat receptor mutant).
For `CCCC(O)c1cn(CCc2c(C)[nH]c3cc(Cl)cc(Cl)c23)nn1` (stereo not drawn), the EC50 was 546 nM (GLP1R; cAMP accumulation, positive allosteric modulator, HTRF; CHO-K1 expressing GLP1R; crude reaction product, added: GLP-1(9-36) at EC20).
With `CCCn1c(NCc2cccc(OC)c2O)nc2ccccc21` the EC50 was 620 ± 67 nM (ALDH1A3 (Homo sapiens, UniProt P47895); enzyme activity, inhibitor, NADH absorbance 340 nm; pH 7.5, 25 °C, 200 µM NAD+, added: 100 µM propionaldehyde).
For `NCCCCNC(=O)[C@H](Cc1ccc(I)cc1)NC(=O)N1CCc2ccccc2C1`, the EC50 was 43000 ± 11000 nM (Melanocortin receptor 5; reporter gene, agonist, β-galactosidase reporter; HEK293 stably expressing Melanocortin receptor 5).
The EC50 of `COC(=O)[C@@H]1C(c2nc3cc(C)ccc3o2)=Cc2cc3c(cc2[C@H]1c1cc(OC)c(OC)c(OC)c1)OCO3` is reported as 9700 ± 1800 nM (Leishmania infantum; iRFP fluorescence; mouse splenocytes infected, amastigote, iRFP, ex vivo splenic explant; 48 h).
